Results of several laboratories.
A part holds a random share of what one study measured. Substitutions count along the parent as printed.

Set 1
Target: CCNA1, cyclin fold, Cln2 fusion (human)
Technique: yeast growth competition, sequencing
Sample: yeast
Notes: weak parent motif
Relative to: not given
Direction: higher = stronger binding
Quantity: normalised enrichment score
Starting sequence: CABLES2 docking peptide (human); ICAKRSLCAAFSV
ICAKRSACAAFSV [L7A]: -0.144
ICAARSLCAAFSV [K4A]: 0.205
ICAKRALCAAFSV [S6A]: 0.165
IAAKRSLCAAFSV [C2A]: -0.175
ICAKRSLAAAFSV [C8A]: 0.176

Set 2
Target: RING finger protein unkempt homolog, zinc fingers 1-6, SBP tag (UNK, Homo sapiens, UniProt Q9C0B0, residues 30-357)
Chain of UniProt Q9C0B0 (30-357, looked up): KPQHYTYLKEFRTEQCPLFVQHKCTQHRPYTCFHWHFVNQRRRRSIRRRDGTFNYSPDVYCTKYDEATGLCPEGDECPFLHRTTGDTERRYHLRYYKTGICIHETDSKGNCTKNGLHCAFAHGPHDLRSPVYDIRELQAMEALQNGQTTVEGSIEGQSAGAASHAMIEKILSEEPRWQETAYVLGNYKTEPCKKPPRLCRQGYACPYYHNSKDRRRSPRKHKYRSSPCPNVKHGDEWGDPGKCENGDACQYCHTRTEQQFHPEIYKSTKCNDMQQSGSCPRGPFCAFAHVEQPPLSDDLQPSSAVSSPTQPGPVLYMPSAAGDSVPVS
Technique: RNA Bind-n-Seq
Molecule type: RNA
Sample: in vitro
Tested at: 100 nM
Notes: RNA with constant flanks, vertebrate orthologous sites, ends assumed
Relative to: input RNA pool
Direction: higher = stronger binding
Quantity: bound/input enrichment
Constant ends, left off below: GGGAGUUCUACAGUCCGACGAUC … CAACAGAGGAUUGAGCAUCA
UUUUAAAGUCAUUUUUCACAUUUCCUGUAAAUAGUGGAUAAUCAUUUUUAUUUUAUUUUUAAGUGCUGUUUUAACAUGUGGAUAGAUCAUAAAUGUACUUGCUGAAUUCAUUCUUUUUUU: 0.579 ratio
CGGGGUGUACCAGUGGGGCGCUGCUGGCCAUUUAGCGUUGUUUGAUUUGUGACCUUGACGUAAUAGAUAGGCUUGUGGGUUUUUUUUUUAAUUUAAAGAUAUUAAGACUUAAUUCACUAA: 0.973 ratio
ACAUCAUGAAUUACUGUCACUUUGGUAGCAGGUAGAACAUUUUGCAAGAAAUGUAUACACCUAGUUAAGCUGAAUAUGAUAUAUUUUUAUUAGCCUGUAAAUAAAUAUACUCUUCUGCAU: 0.925 ratio
ACACUUAUAUUGUGGCAUAUAGUCAACAUGGAAGUAGACCAGUUCUGCUGAUUUGAAAUUUAGAUUUUUUAAAUUAUGUACUGGGGACAGGUUUUUGUUGCUUUACAUUGCUUCCUAGUU: 2.06 ratio
CCGCCGAUUCACUCAUUGGGAGAGCGGCACAUAUAGCUGUUCUUGACUCGGAAAUAUUUUUAGAGAAAUUCUUUCUGGUUGCUGCCCUCAAAUAUUUCCAGUAGAAUAAAAGCAUUGUUA: 0.526 ratio
CUGUUGUGUGAAAAAUGUCUAUCCAGAGAAGUAACAUUCUAUAAAUAUUAUCAAAUAAUACAGCUAGAGUAUUUUUAGGUAUUAAAUUAUUUGUCAAGCAUUUAAAGUGAAUUUGAGAUU: 0.511 ratio
AUCAUCUAGUUAGGGGUAACCAUUAAUUUAUUUUAAUAAAGGAGAUGCUGAAAGUCCUAUUAGUACUGACUUUAGUUGGAGAACUGAGAUAAGGAUCUUUGAGGUAAUUCUAAAAUUCAG: 0.747 ratio
UCCUCAACUUGUUCUAGCUGGCGAUCCUUCAAAGUUGGGUCAGGCAUUAGUGCUAGGUACUAGCAGUGUUCAUUUCUCUGUUGCCAUUGAUCAGAGAGACAAGACGUUAAAAAGAGUAAU: 0.477 ratio

Set 3
Target: RNA binding protein fox-1 homolog 2, RRM domain, GST-SBP tag (RBFOX2, Homo sapiens, UniProt O43251-10, residues 100-194)
Technique: RNA Bind-n-Seq
Molecule type: RNA
Sample: in vitro
Tested at: 365 nM
Notes: natural RNA segment, single round, ends assumed
Relative to: no-protein control
Direction: higher = stronger binding
Quantity: RBNS enrichment (R)
Constant ends, left off below: GGGAGUUCUACAGUCCGACGAUC … UGGAAUUCUCGGGUGCCAA
Residues (chain): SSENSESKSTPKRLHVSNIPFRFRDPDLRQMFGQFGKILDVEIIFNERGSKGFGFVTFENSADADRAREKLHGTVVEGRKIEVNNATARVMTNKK
CCCAGUUUCUAGAUGAAUGCAACAUGAUGAUGGUGAUGAUGACGAUGAGUUUAAUCAUUGUUCAUUUAUUGCCUUUAGGGCUGAGGGAAAGGGAAGGUUUGUUUUUUUUU: 1.3
GCAACAAAAAGUCCUUGUCGAAACCACAUUUCAAGUCCUUUUACGUAUAACCAUCCUUCGGCCAGCCCCGGUAGGCAGGGGAUGAGUCAUUCCAGGUCGGCAUCCUCCGG: 0.288
GUAUGGAGCAUUUUCACUUCUAAAUAGUUAGAUACAGAAAUUAAGUGCAUUGUAUCUUUUUCAUAAUGGUACUAUUUAGAAGCCCAGUUAGUCUUACUGAGCUUAUGCUU: 1.11
UGCUGUUUAGAAAGCAUUUAUCUUGCAUUUCUUUAUUCUUUCUAAUUAUCUAAAAUUCAAUAAAAUUUUAUUCAUAUAAAAUAAGUUGUCAUUAAUUAUCAAUACUAACG: 2.2
CAGGGCGGGCUGAGGGCAGAAGGCAGUGAGACAUUUAUCCACAGAACAGUCUCCCUCGUCCCACCCACUGCCUCGUUAACUAGAUCCCACAUCAGUGUGCUGAGUACCUG: 0.239
UUAAAAAAAUAAUUGGUUGACUUAAUAUAUUUGCUUUUUUUCUCACCUGCACUUAGAGGAAAUUUGAACAAGUUGGAAAAAAACAAUUUUUGUUUCAAUUCUAAGAAACA: 2.18
GAGGCAGACAGACUGAGGCACCACAGAGGGUCAAACAAGCGUGCUUCCCUCACACACUGUGACUAUUGGGAGACUGCGCCAGUUAGCAGUAGUUCACUCAGCCUUGAUUG: 0.551
UACCUCCAUUCUGAAGAGGGAGGUUUUGGUGUCCCUGGUCCUCUGGGAAUAGAAGAUCCAUUUGUCUUUGUGUAGAGCAAGCACGUUUUCCACCUCACUGUCUCCAUCCU: 0.891

Further values, each from its own experiment
PhoQ, residues 284 288 289 292 302 303 DDMDFR — fold induction (PhoP, residues 12 14 15 18 19 NHTVL (Escherichia coli, UniProt P23836); Sort-seq, measured: YFP reporter; E. coli; PhoQ-PhoP variant library, added: 10 µM Mg2+; relative to: high Mg2+ state, higher = stronger signaling): 0.918

A few entries again (set 2):
CGGGGUGUACCAGUGGGGCGCUGCUGGCCAUUUAGCGUUGUUUGAUUUGUGACCUUGACGUAAUAGAUAGGCUUGUGGGUUUUUUUUUUAAUUUAAAGAUAUUAAGACUUAAUUCACUAA: 0.973 ratio
ACAUCAUGAAUUACUGUCACUUUGGUAGCAGGUAGAACAUUUUGCAAGAAAUGUAUACACCUAGUUAAGCUGAAUAUGAUAUAUUUUUAUUAGCCUGUAAAUAAAUAUACUCUUCUGCAU: 0.925 ratio
ACACUUAUAUUGUGGCAUAUAGUCAACAUGGAAGUAGACCAGUUCUGCUGAUUUGAAAUUUAGAUUUUUUAAAUUAUGUACUGGGGACAGGUUUUUGUUGCUUUACAUUGCUUCCUAGUU: 2.06 ratio
CCGCCGAUUCACUCAUUGGGAGAGCGGCACAUAUAGCUGUUCUUGACUCGGAAAUAUUUUUAGAGAAAUUCUUUCUGGUUGCUGCCCUCAAAUAUUUCCAGUAGAAUAAAAGCAUUGUUA: 0.526 ratio
